Results from different studies.
Each numbered part is a random draw from the data of one study; scales do not carry over between parts. Changes are numbered by the printed parent chain.

Set 1 — method: RNA Bind-n-Seq; form: RNA; medium: in vitro; tested at: 1 µM; notes: whole 134-nt RNA, ends assumed; added: 150 mM KCl; baseline: input library; reading: higher = stronger binding
Target: Ras GTPase-activating protein-binding protein 1, C-terminal RGG region (G3BP1, Homo sapiens, UniProt Q13283)
Chain of UniProt Q13283 (whole entry, looked up): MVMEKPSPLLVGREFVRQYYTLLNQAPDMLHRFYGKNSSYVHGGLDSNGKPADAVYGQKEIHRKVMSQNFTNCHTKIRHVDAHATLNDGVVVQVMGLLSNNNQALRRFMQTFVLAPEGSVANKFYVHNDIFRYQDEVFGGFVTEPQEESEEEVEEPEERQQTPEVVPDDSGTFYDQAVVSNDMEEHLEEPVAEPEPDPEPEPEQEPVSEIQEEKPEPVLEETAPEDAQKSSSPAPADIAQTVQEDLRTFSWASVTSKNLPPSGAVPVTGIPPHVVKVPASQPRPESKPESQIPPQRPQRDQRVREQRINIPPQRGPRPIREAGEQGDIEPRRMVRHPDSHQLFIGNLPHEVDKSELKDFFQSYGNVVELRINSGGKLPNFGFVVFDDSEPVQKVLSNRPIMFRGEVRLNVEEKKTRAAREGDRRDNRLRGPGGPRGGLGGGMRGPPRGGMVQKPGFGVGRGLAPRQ
All sequences stand within: GGGAGUUCUACAGUCCGACGAUC … UGGAAUUCUCGGGUGUCAAGG
Oligonucleotide | log2 enrichment
UCCCUGAAUCACCGACUGGAGGAGAGUUACCUACAAGAGCCUUCAUCCAGGAGCAUCCACACUGCAAUGAUAUAGGAAUGAGGUCUGAAC | -0.798
CUGUGCUACACAUCGUAUGUACCGAAUCGGGGAAAAAAAGGAAAAAAAGGGAAAAAAAGGGGAAAGUAUUAUGUUACGCCGUUCGGAUCU | -1.29
GCAGGAAGUAAAAACAAAUGGAAAUGCUUCGGAUAGUGGCAGGGGUGGGGGUUGCUAAGGAAAGGGUGGGGUGGGAGUGGGUAAAGAGUU | 1.98
CCUGUGCUACACAUCGUAUGUACCGAAUCGGUUUUUUGGGGUUUUUUGGGGUUUUUUGGGGAAAGUAUUAUGUUACGCCGUUCGGAUCUG | -1.13
AGUCCUGUGCUACACAUCGUAUGUACCGAAUCGGGGUUUGGGGUUUGGGGAAAGGGGAAAGUAUUAUGUUACGCCGUUCGGAUCUGCACU | 3.88
GUCCUGUGCUACACAUCGUAUGUACCGAAUCGGGCCCCCGGGGCCCCCGGGCCCCCGGGAAAGUAUUAUGUUACGCCGUUCGGAUCUGCA | -2.05
AGUCCUGUGCUACACAUCGUAUGUACCGAAUCAAAUUUUUAAAUUUAAAUUUUUAAAAAAGUAUUAUGUUACGCCGUUCGGAUCUGCACU | -2.58
CAAGUCCUGUGCUACACAUCGUAUGUACCGAAUCGGGGAAGGGGAAGGGGAAGGGGAAAGUAUUAUGUUACGCCGUUCGGAUCUGCACUU | 3.13
UAGUGAAAUUUCUAAUAUAUAUAUUUUUUUCUUUAGGAGAAGAAACGAAUGCAUCAGAUCAACAGAAUGAACCCCAGUUAGGCCUGAAAG | -1.63
CAAGUCCUGUGCUACACAUCGUAUGUACCGAAUCGGAAAAAGGAAAAAAAGGUGGAAAGUAUUAUGUUACGCCGUUCGGAUCUGCACUUC | -1.78
UGGUAGGUGGAUUUUGUUUAUUUUUUUAGCUCAUUUCCAGGGGUGGGAAUUUUUUUUUAAUAUGUGUCAUGAAUAAAGUUGUUUUUGAAA | 4.2
CUGUGCUACACAUCGUAUGUACCGAAUCGGUUUUUUUGGUUUUUUUGGGGUUUUUUUGGGGAAAGUAUUAUGUUACGCCGUUCGGAUCUG | -1.31

Set 2 — method: DHFR PCA, deep sequencing; medium: yeast; added: (+)-ABA 0 µM; baseline: wild-type fitted maximum; reading: higher = stronger binding
Target: ABI1, truncated, D143A, DHFR fusion (Arabidopsis thaliana)
Notes: methotrexate growth selection, single substitutions
Starting sequence: PYL1, truncated, DHFR fusion (Arabidopsis thaliana); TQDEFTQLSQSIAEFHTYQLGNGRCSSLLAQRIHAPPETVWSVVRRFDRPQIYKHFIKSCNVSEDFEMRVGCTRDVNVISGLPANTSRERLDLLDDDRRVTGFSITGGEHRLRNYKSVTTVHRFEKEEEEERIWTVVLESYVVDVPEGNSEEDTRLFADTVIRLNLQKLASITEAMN; partner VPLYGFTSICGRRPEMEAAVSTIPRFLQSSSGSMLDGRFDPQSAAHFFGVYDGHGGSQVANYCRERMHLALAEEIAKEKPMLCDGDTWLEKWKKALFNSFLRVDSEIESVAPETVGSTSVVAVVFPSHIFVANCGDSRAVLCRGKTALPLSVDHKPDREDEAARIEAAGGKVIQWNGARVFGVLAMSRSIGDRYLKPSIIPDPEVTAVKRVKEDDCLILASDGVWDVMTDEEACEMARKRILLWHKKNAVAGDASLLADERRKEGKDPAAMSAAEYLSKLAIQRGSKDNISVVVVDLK
Change | relative binding score
A35F | 0.144%
S87M | 36.1%
E89L | 1.59%
R45G | -3.75%
N61L | 21.7%
Q31E | 1.52%
I12N | 5.7%
H34G | 4.75%
F124N | 2.43%

Set 3 — method: universal PBM; form: double-stranded DNA, one strand shown; medium: in vitro; tested at: 600 nM; reading: higher = stronger binding
Target: Sal-like protein 4, full length isoform A (SALL4, Homo sapiens, UniProt Q9UJQ4, residues 1-1053)
Chain of UniProt Q9UJQ4 (whole entry, looked up): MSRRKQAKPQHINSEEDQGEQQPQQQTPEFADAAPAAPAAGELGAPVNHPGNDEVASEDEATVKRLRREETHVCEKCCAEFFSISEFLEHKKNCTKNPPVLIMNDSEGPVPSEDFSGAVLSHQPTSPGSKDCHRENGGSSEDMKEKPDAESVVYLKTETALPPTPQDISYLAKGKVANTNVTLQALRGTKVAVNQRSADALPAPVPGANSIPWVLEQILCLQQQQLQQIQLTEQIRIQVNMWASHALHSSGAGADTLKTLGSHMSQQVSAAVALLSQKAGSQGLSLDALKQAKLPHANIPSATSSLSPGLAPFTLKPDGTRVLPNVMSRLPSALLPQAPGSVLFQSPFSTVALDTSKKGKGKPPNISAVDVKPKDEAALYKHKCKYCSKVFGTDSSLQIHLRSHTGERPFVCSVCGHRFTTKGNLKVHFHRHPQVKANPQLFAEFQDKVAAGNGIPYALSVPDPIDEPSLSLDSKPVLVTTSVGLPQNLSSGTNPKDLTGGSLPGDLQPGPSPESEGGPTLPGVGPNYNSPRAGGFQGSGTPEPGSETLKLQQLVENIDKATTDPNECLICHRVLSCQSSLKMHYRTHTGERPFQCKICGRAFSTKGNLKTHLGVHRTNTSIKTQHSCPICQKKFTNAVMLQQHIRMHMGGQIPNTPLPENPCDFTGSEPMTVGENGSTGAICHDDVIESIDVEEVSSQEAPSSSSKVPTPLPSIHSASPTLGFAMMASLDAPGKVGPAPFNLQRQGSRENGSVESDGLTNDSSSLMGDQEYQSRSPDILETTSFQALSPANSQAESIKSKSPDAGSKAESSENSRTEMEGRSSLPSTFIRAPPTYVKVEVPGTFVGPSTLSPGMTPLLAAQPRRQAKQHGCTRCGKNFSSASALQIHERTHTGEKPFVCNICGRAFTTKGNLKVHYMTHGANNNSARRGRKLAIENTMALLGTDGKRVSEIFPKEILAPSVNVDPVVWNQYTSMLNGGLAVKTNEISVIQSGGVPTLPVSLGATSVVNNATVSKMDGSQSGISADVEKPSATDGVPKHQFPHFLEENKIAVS
Notes: 8-mer, flanks averaged, mean of replicates
Oligonucleotide | E-score
CCTAATAG | 0.0563
GCATACAC | 0.0688
GCGTACTA | -0.0503
CGATTGCA | 0.0675
AACAGCGG | -0.0762
CAAAACCC | 0.00703
ATGTTGAG | 0.134
CACCAAGA | -0.0941
CTCGCTCC | -0.172
ACTCAGGA | -0.0929
AACCGGGT | -0.309
CTGGTTTC | -0.128
GCGCACCC | -0.315
GGGGAGGA | -0.25
AGAAGGTC | -0.07
ACGTATCC | -0.159
ACCGTTAC | 0.00805
GATGTGTA | 0.0878
AACGAGGC | -0.219
AGCGGACA | -0.205
CCTCGTCG | -0.125
AGCGGCCG | -0.287
CCCTCGAG | -0.198
TAACGGGA | 0.138
ACTTTGCT | 0.0132

Set 4 — method: protein-binding microarray; form: double-stranded DNA, one strand shown; medium: in vitro; tested at: 940 nM top; notes: 60-bp whole probe; added: salmon DNA 0.4 mg/ml; baseline: random background probes; reading: higher = stronger binding; all sequences stand within: GCCTAGCAC … GTCTTGATTCGCTTGACGCTGCTG
Target: Interferon regulatory factor 5, full length, phosphomimetic (IRF5, Homo sapiens, UniProt Q13568-2, residues 1-514, S451D/S453D/S456D/S462D)
Oligonucleotide | fitted relative affinity
GACGGACTCCTTCTCCTGACGTGCTAG | 0.117 z-score
TTAGGACTGGGTCTCGGTAAGTGCTAG | 0.672 z-score
TCATTTCTAAAACTCTTACTGTGCTAG | 0.963 z-score
TCACATCTGGGTATTTTACTGTGCTAG | 0.272 z-score
TTAGGTTCCCTTTTCCTTCAGTGCTAG | 0.917 z-score
TTAGGACTGGGCTTTCGGTTAGTGCTA | 1.1 z-score
TTAGGTTTTCTTCTCCTTTAGTGCTAG | 1.27 z-score
TTAGAACTGAGTATCGATAAGTGCTAG | 3.4 z-score
GACGATTTCAATTCCGAGACGTGCTAG | 0.379 z-score
GCCGGTTTCGGTATCGGGACGTGCTAG | 15.3 z-score
AGGGTCCCGCGATTCGACACGTGCTAG | -0.405 z-score
TACTACATATCACCTCAATCGTGCTAG | 1.17 z-score
TTAGATTCCAGATTCGATTAGTGCTAG | 0.577 z-score

Set 5 — method: RNAcompete; form: RNA; medium: in vitro; tested at: 20 nM; notes: 7-mer, probes averaged, single round; baseline: mean of 7-mers; reading: higher = stronger binding
Target: PABPC1L2, full length, GST fusion (mouse, UniProt A0ABA7IW68)
Target sequence (chain): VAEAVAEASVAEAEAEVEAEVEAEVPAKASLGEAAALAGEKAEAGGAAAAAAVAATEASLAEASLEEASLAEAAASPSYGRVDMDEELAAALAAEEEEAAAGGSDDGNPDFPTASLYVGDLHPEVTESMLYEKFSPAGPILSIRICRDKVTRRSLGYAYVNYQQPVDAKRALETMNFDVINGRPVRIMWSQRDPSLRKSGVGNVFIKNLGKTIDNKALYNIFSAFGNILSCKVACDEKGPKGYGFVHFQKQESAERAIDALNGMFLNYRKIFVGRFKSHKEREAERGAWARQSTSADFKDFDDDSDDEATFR
Oligonucleotide | 7-mer Z-score
GUCAAUG | -0.313
GGUACGG | 0.178
CCGCCUU | -0.295
AUGCUCG | -0.206
CAGCCUU | -0.298
CAUGGAA | 0.389
CAAGUUU | -0.269
AAAUCCA | 0.871
UGUUAGA | -0.135
GGAGCCC | -0.202
CCAUGAA | 0.0297
CCACUUU | -0.162
UCUGCAG | -0.255
GAAGCUC | -0.248
CUUAGCG | -0.186
UCCGGCC | -0.49
ACCUUUA | -0.0681
CGGCCUC | -0.365
AAAGAGA | 1.87
GGGUGGC | 0.294
ACACAUA | 0.0225
CGUGGAU | 0.269
AAGCUCA | -0.0409
GGCCGUU | -0.369
CCGAAAA | 5.13

Set 6 — method: protein binding microarray; form: double-stranded DNA, one strand shown; medium: in vitro; tested at: not given; baseline: not given; reading: higher = stronger binding
Target: Histone acetyltransferase KAT6A, winged helix 1, GST fusion (KAT6A, Homo sapiens, UniProt Q92794, residues 1-85)
Notes: 8-mer, flanks averaged, mean of 2 arrays, mostly near background
Construct (chain): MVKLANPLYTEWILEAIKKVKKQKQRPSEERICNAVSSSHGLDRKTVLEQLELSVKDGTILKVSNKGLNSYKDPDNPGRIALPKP
Oligonucleotide | E-score
CGCGGAGC | 0.357
TAAGGGCA | -0.172
AACTTGGA | 0.0781
CAACGCTA | 0.101
AGTAGGAC | -0.000985
ACTGGGCT | -0.31
CAAGCGAC | 0.216
ACCATCAT | -0.265
ATTAGTTA | -0.0683
CCAGGATA | -0.116
CACCCAGC | -0.0378
CCGTCGGA | 0.455
AACTACGG | 0.234
GGGCCTCA | 0.0779
TCACTTCA | -0.0671
TCAATTAA | -0.0421
TCGTGGCA | -0.167
AAGAGGCA | -0.192

Set 7 — method: RNA Bind-n-Seq; form: RNA; medium: in vitro; tested at: 365 nM; baseline: no-protein control; reading: higher = stronger binding
Target: RNA binding protein fox-1 homolog 2, RRM domain, GST-SBP tag (RBFOX2, Homo sapiens, UniProt O43251-10, residues 100-194)
Notes: natural RNA segment, single round, ends assumed
All sequences stand within: GGGAGUUCUACAGUCCGACGAUC … UGGAAUUCUCGGGUGCCAA
Residues (chain): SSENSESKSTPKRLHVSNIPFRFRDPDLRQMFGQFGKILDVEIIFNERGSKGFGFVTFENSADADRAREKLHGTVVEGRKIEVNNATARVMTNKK
Oligonucleotide | RBNS enrichment (R)
CAGCCUGAUACAGCAUUACUGUUGUCACCAGUUGACUGGAAUUGUAACCUUUUACUUGGGAAUGUGGUGGCCCAAUGUCAGCUGACCUGAAAGAACAUGGCUACCGUGAG | 0.401
AGACUAGCUUGCCUUGGUUUUGAUGUGUGUGGCCUCAGACGUGAUCAUUUCCCAUCCCGCUGUGUCUCUGGGUCUCCCUCCUCCCCAUCUCCACCCCCCAAGAGCCAUUG | 1.99
UAGAAGCACAAGACAGUGGAGCCAGCGGAGCCGGGACUAGAGGAGUUGGGCAGUCUCAGUUGAGAAGCUUUAUCGCCUCAAGCCAAGUGGGAGCUCUCUCCCUCAUGCCU | 0.26
CAAGUUUGUCAAUGAGGCUAUAGCCUCAAGAAGAUGCCAUCUGCCUGAAUGUUGACAUGCCAGCGGGCGUGUGACCCUUCAUUUUCCCUUUCCCUUCCUUUGGACAGUGU | 0.743
UAUGUGCUAUGGAAGGAAAUGCUGGUGACUAAAAUAAGGUUUACUCUGAAAGAGGAGGAAUUUUAUUCAAAGCAUUCAAACAUUUUAUUCAAGUGUUUCAAAAUUCAAAG | 0.419
CAGCUCUGGCUUUGCAUCCUUACUCUCAUGCCCAGUUGCUUAGAGAGAACGGGAGAACAGGUCUAAGGAAUUGUACCUUGAUGUGCUCUGCAAAGGAGAUAACGAAUGGG | 0.238
ACAAUCAUUUUAUGGAAGAUGUGUGAUAAUCUGUUUUUACUGGUAUUAAUAAACACAUACAAUGAAGAAAACAGAUAACAAAUUUUAAGACCAAGGUAAGAUACUCAAUC | 0.316
CUGUGCCCUGACAAGUAGACUGGCACACUCCUGCCCCACACUCAGCCUUCUGCAGCAGGUAGGCUUGCUUCUGUUAGCUCUGCCUGGAUGCCUUUGUUCCAGAAGGCAUC | 0.531
AGGGUCAAAUACAGCUCUUUCUAGCAAAAUCAGGCAGCUCUGCCCCAUCGGUAGGGGCACCGAUUAGUCUACUAACAGCCAGAGGUCCAUCUAGCAGGGUGCCGGGAGGA | 0.15
GGCCAUCUUACGAUACGGCUUGGACUCUGAUCUCAACUGCAAGAUUGCCCAGCUGCCCUUGACAGGAAGUAUGAGCAUCAUCUUCUUCCUGCCCCUGACCGUGACCCAGA | 0.985
CCCCAUGCAACACUGGAAAUGACUGUUCCAGAGAGCGGGCAGACCUGGCAGAGCGCCCCUGGCGCCUGAGACUACCACCCACUCCGUUCCUGCCAGAAACGACCCUCUGU | 0.554
UUUUUCCUCCUCCAAUUGUUUUACCAGACCAGAGAGAGAAAUAAAAACCUCUCCUCACACUUGGUAUGGAGACUCGACUGAAAAUGAGUUGAGUUUGGUCCUCUCCUUUU | 0.308
